# Experimental data gathered from unrelated publications.
# Each line is one published result; not all experiments were run side by side. Several values in a cell are separate wells, animals, samples, runs or records. Numbers after ± are the reported error.
# Sequence of UniProt P20813 (whole entry, looked up): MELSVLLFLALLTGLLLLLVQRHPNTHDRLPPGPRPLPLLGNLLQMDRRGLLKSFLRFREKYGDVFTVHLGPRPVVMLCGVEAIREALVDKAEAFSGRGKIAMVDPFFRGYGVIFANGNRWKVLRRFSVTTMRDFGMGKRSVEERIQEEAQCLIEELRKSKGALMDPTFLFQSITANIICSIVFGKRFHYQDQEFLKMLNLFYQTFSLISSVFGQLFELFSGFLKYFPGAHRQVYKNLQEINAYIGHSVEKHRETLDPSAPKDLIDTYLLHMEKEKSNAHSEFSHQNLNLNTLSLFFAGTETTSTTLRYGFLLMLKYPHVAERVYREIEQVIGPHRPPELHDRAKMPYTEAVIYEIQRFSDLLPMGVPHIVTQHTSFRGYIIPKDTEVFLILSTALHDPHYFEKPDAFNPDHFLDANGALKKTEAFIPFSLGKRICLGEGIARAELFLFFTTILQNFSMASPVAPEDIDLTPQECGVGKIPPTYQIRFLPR
# Sequence of UniProt P51813 (whole entry, looked up): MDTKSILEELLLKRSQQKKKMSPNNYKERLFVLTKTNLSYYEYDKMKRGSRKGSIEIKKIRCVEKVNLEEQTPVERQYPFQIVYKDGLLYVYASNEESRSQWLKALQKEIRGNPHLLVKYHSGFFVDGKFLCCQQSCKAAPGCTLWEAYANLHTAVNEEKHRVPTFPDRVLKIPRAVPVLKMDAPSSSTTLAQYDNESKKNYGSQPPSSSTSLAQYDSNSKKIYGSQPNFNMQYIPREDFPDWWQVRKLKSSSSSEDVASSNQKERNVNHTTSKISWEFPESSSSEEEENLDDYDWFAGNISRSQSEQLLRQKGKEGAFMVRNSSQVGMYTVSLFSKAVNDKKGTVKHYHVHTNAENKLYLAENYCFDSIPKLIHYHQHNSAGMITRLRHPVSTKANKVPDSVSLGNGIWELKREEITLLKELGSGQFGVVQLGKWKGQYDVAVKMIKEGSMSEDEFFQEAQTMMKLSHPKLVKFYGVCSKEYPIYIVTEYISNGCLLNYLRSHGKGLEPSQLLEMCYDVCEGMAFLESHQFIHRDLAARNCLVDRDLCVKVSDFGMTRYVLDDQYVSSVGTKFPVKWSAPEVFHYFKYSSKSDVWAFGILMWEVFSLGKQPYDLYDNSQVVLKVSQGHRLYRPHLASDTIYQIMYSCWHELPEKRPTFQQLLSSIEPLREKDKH
Compound,target or system,test,test system,conditions,how to read,endpoint,result
Nc1ncc(-c2cc(-c3cnn(CC(F)(F)F)c3)ncc2F)nc1C(=O)NC1CNCC(F)C1 (stereo not shown),PRKCD,KINOMEscan,,1 µM,relative to: DMSO control,remaining binding,75%
Cc1nn(-c2cccc(N)c2)c(=O)c2cnc(Nc3ccc(N4CCNCC4)cc3)nc12,"BMX (Homo sapiens, UniProt P51813)","kinase activity, inhibitor, SelectScreen kinase profiling",,,,IC50,> 10000 nM
CC12CCCC(NS(=O)(=O)C3CCCCC3)(C1)C1CC(C)(C)C1CC2 (stereo not shown),HT-29,"cell growth or viability, CCK-8",,50 µM,,inhibition,51.8%
CNC(=O)C1CCCN(C(=O)C2CC3CCC2N3C(=O)[C@@H]2C[C@@H](O)CN2C(=O)NCc2cccc(Cl)c2F)C1 (mixture of isomers),"Cytochrome P450 2B6 (CYP2B6, Homo sapiens, UniProt P20813)",preincubation without NADPH,human,1.85 µM,relative to: negative control,remaining activity,97% and 99.7% and 107%
CCC(=CCc1c(O)cc2c(c1O)C(=O)CC(c1cccc(OC)c1O)O2)CC (stereo not shown),HeLa,"cell growth or viability, MTT",,"1.563 µM, 48 h",,inhibition,-1.79%
CC(=O)N[C@@H](CC(=O)O)C(=O)N[C@@H](CO)C(=O)N[C@H](C(=O)N[C@@H](CC(=O)O)C(=O)COC(=O)c1c(C)cccc1C)C(C)C,"THP-1 cells, LPS-primed","pyroptosis, LDH release",,"25 µM, LPS 1 µg/mL, 4 h, added: nigericin 5 µM, 2 h",,cell lysis,53% and 63.2%
CN1CCCNC(=O)c2cccc(c2)C(=O)NCCCN(C)CCCNc2cccc3c2C(=O)c2cccc(c2C3=O)NCCC1,SAS,"RNA-Seq, item: LTBR mRNA",,"1 µM, 6 h",relative to: untreated cells,log2 fold change,-1.08
O=C(C[Se]C(=O)c1ccc2ccccc2n1)Nc1cccc(C(F)(F)F)c1,NCI60 NSCLC subpanel mean,cell growth,,,,TGI,3500 nM
CCC(=CCc1c(O)cc2c(c1O)C(=O)CC(c1cc(O)ccc1OC)O2)CC (stereo not shown),HeLa,"cell growth or viability, MTT",,"100 µM, 48 h",,inhibition,86.4%
CC(C)c1ccc(N(C)c2ccc3c(c2)OCC[C@H]3CNc2cnccc2C(=O)O)cc1,HCC1187,"cell growth or viability, ATP luminescence",,7 days,,IC50,6.51 nM
O=S(=O)(N[C@H]1CCO[C@@H](C2c3ccccc3CCc3ccccc32)C1)c1ccc(OC(F)(F)F)cc1,D341,immunoblot,,concentration not given,,CCR2 protein level,decreased
O=C(NCCO)c1ccc(C2CCCCC2)cc1,,hepatocyte stability,cryopreserved rat hepatocytes,1 µM,,hepatic clearance,48 mL/min/kg
CC12CCCC(NS(=O)(=O)c3ccc(O)c(N)c3)(C1)C1CC(C)(C)C1CC2 (stereo not shown),HT-29,"cell growth or viability, CCK-8",,50 µM,,inhibition,93.5%
C=CC(=O)N1[C@@H](c2ccc3c(c2)OCO3)c2[nH]c3ccccc3c2C[C@H]1C(=O)N1CCN(C)CC1,human cyclin E1 N112C-3xFLAG:CDK2,"co-IP with TMT proteomics, item: PCMT1",,"concentration not given, P22061",relative to: wild type DMSO,relative co-enrichment,131%
CCN(CC)CC(=O)Nc1cccc(-n2cc(-c3ccc4ccc(-c5cn(-c6cccc(NC(=O)CN(CC)CC)c6)nn5)cc4c3)nn2)c1,RCC4,"PCR angiogenesis array, item: FIGF",,"5 x IC50, 2 h, normoxia",relative to: untreated,fold regulation,1.43
COC1CN([C@H]2CC[C@H]([C@@]3(C)Oc4c(Cl)cc(C(=O)NCc5c(SC)cc(C)[nH]c5=O)c(C)c4O3)CC2)C1,,"RNA-seq, item: PLEKHH2 mouse homolog","mouse, HT-1376 xenograft, whole blood",dose not given,relative to: vehicle,log2 fold change,4.8
CNS(=O)(=O)Nc1nccc(Cc2c(C)c3ccc(Oc4ncccc4F)cc3oc2=O)c1F,OVSAHO,cell viability,,7 days,,IC50,> 1000 nM
O=C(NC1CCOCC1)c1ccc(C2CCCCC2)cc1,,hepatocyte stability,cryopreserved rat hepatocytes,1 µM,,hepatic clearance,47 mL/min/kg
C=C(NC(=O)c1csc(-c2nc3c(cc2O)-c2nc(cs2)C(=O)NC(C(C)O)C(=O)NC(=C(C)OC)c2nc(cs2)C(=O)NC2c4nc(cs4)C(=O)NC(COC(=O)c4c5c6c(cccc6n4O)COC(=O)C(OC4CC(C)(O)C(N(C)C)C(C)O4)C2OC5)c2nc-3cs2)n1)C(N)=O (stereo not shown),,,"Sprague-Dawley rat, male, plasma","intravenous infusion, 6 mg/kg single dose",,volume of distribution,28.4 L/kg
N#C[C@@H]1CCCN1C(=O)CNC(=O)c1ccnc2ccc(OCCCN3CCN(C(=O)CCc4ccc5c(c4)CN4CCN6CC(=O)[O][68Ga-]([O]C(=O)C4)([O]5)[O]c4ccc(CCC(=O)N5CCN(CCCOc7ccc8nccc(C(=O)NCC(=O)N9CCC[C@H]9C#N)c8c7)CC5)cc4C6)CC3)cc12,HT1080 cells expressing human FAP,,,"90 min, 37 °C",,internalized fraction,81.7 ± 1.7%
CC1(C)C[C@@H](Nc2cccc(-c3sc(C(=O)O)c(OCC(=O)O)c3Cl)c2)CCN1S(=O)(=O)Cc1cccc(NC(=O)CN2CCC(c3ccc4c(c3)oc(=O)n4C3CCC(=O)NC3=O)CC2)c1 (stereo partly shown),B16-F10,"HTRF, item: phospho-STAT1 Tyr701",,"0.37 µM, added: IFN-γ",relative to: min-max normalised,pSTAT1 level,66.2% and 68.9% and 59.9% and 61.8% and 65.1% and 67.8%
C=CC(=O)Nc1cccc(Cn2ncc3cnc(Nc4cnn(CCOC)c4)nc32)c1,MARK1 human,"binding, KINOMEscan",,100 nM,lower = stronger binding,percent of control,85%
Cc1cc(Cl)cc(-c2ccnc3cc(CN4C(=O)C5C(C4=O)C5(C)C)sc23)c1C[C@@H]1CNCCO1 (stereo partly shown),CHP-212 resistant cells (pooled),annexin V-PI flow cytometry,,"0.1 µM, 48 h",,viable cells (annexin V-/PI-),91.2% and 79.6% and 84.4%
Cc1ncsc1-c1ccc(C(C)NC(=O)C2CC(O)CN2C(=O)C(NC(=O)CCCCCCCCCCN2CCCC(Nc3ncc(Cl)c(Nc4ccccc4S(=O)(=O)C(C)C)n3)C2)C(C)(C)C)cc1 (stereo not shown),22Rv1,"RNA-seq, item: LPP-AS2",,concentration not given,relative to: DMSO,log2 fold change,-1.79
C[C@@H]1CC[C@@H]([C@@](O)(CNCc2ccc(F)cc2)COCc2ccc(F)cc2)[C@H](OCc2ccc(F)cc2)C1,A2780,"cell growth or viability, MTT",,"10 µM, 72 h",,inhibition,94.2%
C=CC(=O)N1CCCC(n2c(=O)c3ncccc3n(Cc3ccc(Oc4ccccc4)cc3)c2=O)C1 (stereo not shown),PCL-12,"cell proliferation, MTT",,72 h,,IC50,7000 nM
COc1ccccc1-c1ccncc1C(=O)Nc1nnc(OCc2ccc(Cl)cc2)s1,DLD-1 BRCA2-/-,,,"8 µM, single replicate",,colony count,4 and 7 and 5 and 6
CCN(C(=O)c1cc(F)ccc1Oc1nncnc1N1CCC2(C1)CN([C@H](CCCN(C)CCOC)C(C)C)C2)C(C)C,OCI-AML-3 (NPM1c),"inhibitor, QuantiGene multiplex, item: FLT3 mRNA",,,,IC50,283 ± 209 nM

# For quick reference, copied from above:
Compound,target or system,test,test system,conditions,how to read,endpoint,result
CNS(=O)(=O)Nc1nccc(Cc2c(C)c3ccc(Oc4ncccc4F)cc3oc2=O)c1F,OVSAHO,cell viability,,7 days,,IC50,> 1000 nM
O=C(NC1CCOCC1)c1ccc(C2CCCCC2)cc1,,hepatocyte stability,cryopreserved rat hepatocytes,1 µM,,hepatic clearance,47 mL/min/kg
